Results pooled from the literature.
Each numbered part is a random draw from the data of one study; scales do not carry over between parts. Values joined by “and” are separate records of one study, mostly repeats; a detail may differ.

Block 1
SMILES: CN1C(=O)C(O)(C(=O)O)Oc2cc(F)ccc21 (stereo not drawn)
Endpoint: inhibition
Arabidopsis thaliana; root length; Col-0, seedlings; 50 µg/mL: 36.5%
Arabidopsis thaliana; hypocotyl length; Col-0, seedlings; 12.5 µg/mL: 18.4%
Glycine max; fresh weight; soil surface spray, 150 g ai/ha, 21 days, pre-emergence crop safety: 4.1% and 3.7% and 4.2%
Arabidopsis thaliana; hypocotyl length; Col-0, seedlings; 100 µg/mL: 44.6%
Arabidopsis thaliana; hypocotyl length; Col-0; 12.5 µg/mL, 7 days, seed germination, dark: 18.4%
Amaranthus retroflexus; fresh weight; 150 g ai/ha, post-emergence treatment: 44.4% and 44.1% and 41.9%
Arabidopsis thaliana; root length; Col-0, seedlings; 6.25 µg/mL; baseline: water control: 11.9%
Arabidopsis thaliana; hypocotyl length; Col-0; 25.0 µg/mL, 7 days, seed germination, dark: 24.4%
Arabidopsis thaliana; root length; Col-0, seedlings; 25 µg/mL; baseline: water control: 29.5%
Arabidopsis thaliana; root length; Col-0, seedlings; 50 µg/mL; baseline: water control: 36.5%
Avena fatua; fresh weight; 150 g ai/ha, pre-emergence treatment: 100%
Arabidopsis thaliana; root length; Col-0, seedlings; 25 µg/mL: 29.5%
Arabidopsis thaliana; hypocotyl length; Col-0; 100 µg/mL, 7 days, seed germination, dark: 44.6%

Block 2
Cell line: L444P/L444P Gaucher fibroblasts
Method: 4-MUG hydrolysis in lysate
Tested at: 10 µM
Time: 72 h
Baseline: vehicle
Endpoint: enzyme activity
CCOc1ccc2nc(Sc3nc(Nc4ccc(I)cc4)nc(N4CCOCC4)n3)sc2c1: 173% and 263% and 302% and 200% and 202% and 236% and 159%
c1ccc(Nc2nc(NCCN3CCOCC3)nc(N3CCOCC3)n2)cc1: 113%
Cc1ccc(Nc2nc(NCCN3CCOCC3)nc(N3CCOCC3)n2)cc1: 155%
Ic1ccc(Nc2nc(NCCN3CCCCC3)nc(N3CCOCC3)n2)cc1: 96%
Ic1ccc(Nc2nc(NCCN3CCOCC3)nc(N3CC4CCC(C3)O4)n2)cc1: 120%
CCOc1ccc2nc(Sc3nc(NCCN4CCOCC4)nc(Nc4ccc(I)cc4)n3)sc2c1: 121%
Ic1ccc(Nc2nc(N3CCOCC3)nc(N3CCOCC3)n2)cc1: 151%
Ic1ccc(Nc2nc(NCCc3c[nH]c4ccccc34)nc(N3CCOCC3)n2)cc1: 5.15% and 59.5% and 37.2% and 8.77% and 42.1% and -1.46% and 59.2% and 65.6%
CCOc1ccc2nc(Sc3nc(Nc4ccc(OC)cc4)nc(N4CCOCC4)n3)sc2c1: 225%
Ic1cccc(Nc2nc(NCCN3CCOCC3)nc(N3CCOCC3)n2)c1: 131%
Fc1ccc(Nc2nc(NCCN3CCOCC3)nc(N3CCOCC3)n2)cc1: 106%

Block 3
Structure (SMILES): C[C@@H]1CN(c2ccc(-c3cc(C(=O)NCCOCCOCCOCCOCCOCCOCCNC(=O)/C=C/c4[nH]cc(C(=O)N[C@@H](CC(N)=O)c5ccc(F)c(Cl)c5)c4-c4ccc(Cl)cc4F)ccc3F)cc2NC(=O)c2ccc(F)cc2C(F)(F)F)C[C@H](C)N1C
Observed: thermal unfolding
Method: differential scanning fluorimetry
Tested at: 5.5 µM
Direction: higher = more unfolded
Endpoint: SYPRO Orange fluorescence
DCAF1: DDB1- and CUL4-associated factor 1 (DCAF1, Homo sapiens, UniProt Q9Y4B6)
UniProt Q9Y4B6, sequence (whole entry, looked up): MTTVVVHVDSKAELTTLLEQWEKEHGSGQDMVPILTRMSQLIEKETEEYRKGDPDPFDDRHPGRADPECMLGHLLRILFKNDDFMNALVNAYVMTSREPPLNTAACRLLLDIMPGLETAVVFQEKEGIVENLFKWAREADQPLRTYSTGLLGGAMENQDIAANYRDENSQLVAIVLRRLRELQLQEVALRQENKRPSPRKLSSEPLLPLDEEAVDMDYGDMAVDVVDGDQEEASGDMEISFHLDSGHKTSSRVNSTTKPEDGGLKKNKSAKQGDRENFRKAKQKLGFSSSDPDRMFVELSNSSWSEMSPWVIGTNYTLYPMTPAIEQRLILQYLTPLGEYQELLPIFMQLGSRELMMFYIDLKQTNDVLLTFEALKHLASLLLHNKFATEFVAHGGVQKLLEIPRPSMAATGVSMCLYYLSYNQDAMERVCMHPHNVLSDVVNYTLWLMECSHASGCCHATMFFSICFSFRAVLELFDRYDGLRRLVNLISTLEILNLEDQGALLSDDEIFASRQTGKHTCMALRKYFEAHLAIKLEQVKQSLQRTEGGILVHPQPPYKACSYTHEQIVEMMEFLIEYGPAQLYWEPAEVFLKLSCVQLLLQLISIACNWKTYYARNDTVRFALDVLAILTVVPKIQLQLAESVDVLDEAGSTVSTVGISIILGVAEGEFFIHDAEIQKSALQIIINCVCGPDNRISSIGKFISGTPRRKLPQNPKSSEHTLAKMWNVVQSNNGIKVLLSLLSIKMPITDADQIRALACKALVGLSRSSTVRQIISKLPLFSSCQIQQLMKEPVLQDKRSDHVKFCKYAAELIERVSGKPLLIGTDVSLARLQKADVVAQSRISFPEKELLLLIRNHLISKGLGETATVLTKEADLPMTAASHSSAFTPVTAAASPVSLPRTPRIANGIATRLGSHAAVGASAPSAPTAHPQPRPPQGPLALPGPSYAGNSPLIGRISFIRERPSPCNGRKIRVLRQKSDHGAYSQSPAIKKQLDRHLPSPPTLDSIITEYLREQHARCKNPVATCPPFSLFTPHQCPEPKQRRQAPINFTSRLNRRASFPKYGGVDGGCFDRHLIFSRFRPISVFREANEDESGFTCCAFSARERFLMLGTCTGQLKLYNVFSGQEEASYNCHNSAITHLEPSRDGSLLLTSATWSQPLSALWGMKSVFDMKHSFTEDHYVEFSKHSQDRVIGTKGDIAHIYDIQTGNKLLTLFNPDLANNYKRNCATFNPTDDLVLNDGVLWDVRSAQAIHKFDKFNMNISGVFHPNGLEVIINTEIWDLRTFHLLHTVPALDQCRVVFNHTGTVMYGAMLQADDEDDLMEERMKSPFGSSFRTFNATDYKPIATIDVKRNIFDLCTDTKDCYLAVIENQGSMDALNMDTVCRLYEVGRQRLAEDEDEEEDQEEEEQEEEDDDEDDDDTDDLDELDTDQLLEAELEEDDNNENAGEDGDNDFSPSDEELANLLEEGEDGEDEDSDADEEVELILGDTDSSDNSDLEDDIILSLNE
WDR5: WD repeat-containing protein 5 (WDR5, Homo sapiens, UniProt P61964)
DCAF1; 73.01 °C: 45700 a.u.
DCAF1; 65.01 °C: 53600 a.u.
WDR5; 93.61 °C: 49800 a.u.
DCAF1; 61.01 °C: 50400 a.u.
WDR5; 28.4 °C: 13500 a.u.
WDR5; 26.6 °C: 13300 a.u.
DCAF1; 71.81 °C: 46500 a.u.
DCAF1; 92.81 °C: 30200 a.u.
WDR5; 58.21 °C: 15700 a.u.
WDR5; 77.81 °C: 59700 a.u.
WDR5; 58.61 °C: 15700 a.u.

Block 4
SMILES: CCN1/C(=C/C=C2\CCCC(/C=C/C3=[N+](CC)c4ccccc4C3(C)C)=C2NCCCCCCCCN2CCC(Nc3nc4ccccc4n3Cc3ccc(F)cc3)CC2)C(C)(C)c2ccccc21
Cell line: U-87 MG
Tested at: concentration not given
Baseline: DMSO
Endpoint: log2 fold change
item: TFDP1 mRNA: -0.958
item: HEY1 mRNA: 1.12
item: TP53BP2 mRNA: 1.16
item: H2AX mRNA: -1.91
item: GOSR2 mRNA: 1.1
item: DBH mRNA: -1.28
item: MYPN mRNA: -2.45
item: ESPL1 mRNA: -2.18
item: FOXG1 mRNA: -1.34
item: TIPARP mRNA: 1.94
item: XRCC2 mRNA: -1.71
item: SRFBP1 mRNA: 0.978
item: LGALS8 mRNA: 1.3
item: NEURL1B mRNA: -3.05
item: TMEM251 mRNA: 1.19
item: NFKB1 mRNA: 0.965
